Measurements pooled from the literature.
Compare with care: the assays were run in different laboratories. “And” joins repeats or separate records; there may be more than shown.
Target: Serine/threonine-protein kinase MRCK beta (CDC42BPB, Homo sapiens, UniProt Q9Y5S2)

O=C(Cc1ccc(OCc2ccccc2)cc1)NC1(C(=O)O)CCN(C(=O)c2ccc(-c3cccc(Cl)c3)cc2)CC1
activity vs control (enzyme activity, inhibitor; 10 µM): 107%

C=CC(=O)Nc1cccc(-c2cnc3[nH]cc(C(=O)NC(C)(C)C)c3n2)c1
inhibition (kinase activity; 0.1 µM): 11% and 14%

Cc1nc2c(F)cc(-c3nc(Nc4ccc(CNC(=O)CCCCCCC(=O)NO)cc4)ncc3F)cc2n1C(C)C
inhibition (enzyme activity, inhibitor; 1 µM): 66%

C=CC(=O)Nc1cc(-c2nn(C3CCN(CCNC(=O)[C@H](C)CCC45CC6CC(CC(C6)C4)C5)CC3)c3ncnc(N)c23)ccc1Oc1ccccc1
inhibition (inhibitor, KiNativ profiling; biochemical; 2 µM): 1.8%

Nc1ncc(-c2cc(-c3cnn(CC(F)(F)F)c3)ncc2F)nc1C(=O)NC1CNCC(F)C1 (stereo not shown)
remaining activity (enzyme activity; 1 µM; relative to: DMSO control): 104%

Cc1cnc2nc1Nc1cccc(c1)COC/C=C/COCc1cc(ccc1OCCN1CCOCC1)N2
remaining binding (binding, competition with immobilised ligand; 0.1 µM): 100%

O=C=[N][Ru-4]123([n]4c5ccc(O)cc5c5c6c(c7cc(F)c[n+]1c7c54)C(=O)NC6=O)[S+]1CC[S+]2CC[S+]3CC1 (stereo not shown)
remaining activity (enzyme activity; 100 nM, human enzyme, added: 10 µM ATP; relative to: untreated): 105%

Cc1cccc(O[C@H]2CCC[C@@H](C(C)CNCc3ccncc3)C2)c1 (relative stereo)
inhibition (enzyme activity, inhibitor; 10 µM): -1%

COCC12C(=O)NC3C4(C(OC)CC1O)C1CC5(O)C(OC)C(O)C(OC(C)=O)(C1C5OC(=O)c1ccccc1)C3(O)C(OC)C24 (stereo not shown)
remaining activity (kinase activity, inhibitor, ProQinase kinase profiling; 25 µM; relative to: control): 96% and 110%

CC(C)=CC1OC(C)(C)C2C=C3C(=O)C(Cl)=CC(O)C3C3C(O)C4OC4C(=O)C132 (stereo not shown)
remaining binding (cell-free assay, competition with immobilised ligand; 10 µM): 100%

NC(=O)C[C@H]1CCc2sc3ncnc(O[C@H]4CC[C@H](N5CCOCC5)CC4)c3c21
inhibition (enzyme activity, inhibitor; 10 µM): -1%

N[C@H]1CC[C@H](Nc2nccc(-c3cccnc3Oc3ccc(NC(=O)NC4CC4)c4ccccc34)n2)CC1
log2 LFQ intensity (kinobead competition pulldown; HEK293/HCT116 lysate mixture; 10 µM, 1 h, 4 °C; lower = stronger competition): 22.4 and 22.2 and 22.3 and 21.7

COc1c(Cl)cccc1Nc1c(-c2ccncc2C#C[C@@]2(C)CCCN2C(=O)/C=C/CN(C)C)[nH]c2c1C(=O)NCC2
remaining binding (cell-free assay, competition with immobilised ligand; 3 µM): 84%

CCN1CCN(Cc2ccc(C(=O)Nc3ccc(C)c(NCc4cnc5[nH]ccc5c4OC)c3)cc2C(F)(F)F)CC1
remaining binding (binding, competition with immobilised ligand; 1 µM): 100%

C=CC(=O)N1CCc2ccc(-n3c(=O)ccc4cnc5ccc(-c6cnn(C)c6)cc5c43)cc21
remaining binding (KINOMEscan; 1 µM; relative to: DMSO control): 96%

COc1ccc(NC(=O)Nc2ccc3c(c2)C(=O)N(C(C)CO)CC(C)C(CN(C)Cc2ccc4c(c2)OCO4)O3)cc1 (stereo not shown)
remaining activity (kinase activity, KinaseProfiler; 0.03 µM, species human; relative to: control): 96%
